# Experimental data pooled from the literature.
# Protocols differ between the studies behind these lines. ± marks the error that the study gave.
SMILES,test,system,conditions,tissue uptake
CCCC[C@H](NC(=O)CNC(=O)CNC(=O)CN1CCN(CC(=O)O)CCN(CC(=O)O)CCN(CC(=O)O)CC1)C(=O)N[C@H]1CC(=O)NCCCC[C@@H](C(N)=O)NC(=O)[C@H](Cc2c[nH]c3ccccc23)NC(=O)[C@H](CCCNC(=N)N)NC(=O)[C@@H](Cc2ccccc2)NC(=O)[C@H](Cc2c[nH]cn2)NC1=O [gallium-67 labelled],,"female C57 mice, B16/F1 melanoma, tumor","intravenous, 0.037 MBq, 4 h",25.1 ± 4.13 %ID/g
NC12CNCCNCC(NCc3ccc(CNC(=O)CCCC(=O)NCc4ccc(-c5nncnn5)cc4)cc3)(CNCCNC1)CNCCNC2.[64Cu+2],,"athymic nude mice, SW1222 xenograft, muscle","24 h post-injection, 24 h pretargeting interval, together with: huA33-TCO pretargeting",0.2 ± 0.07 %ID/g
CN1C(=O)[C@@H](Cc2ccc(O)c(I)c2)NC(=O)CNC(=O)[C@H](Cc2ccc3ccccc3c2)NC(=O)[C@H](CCCNC(=N)N)NC(=O)[C@H]1CCCNC(=O)c1ccc(CNC(=O)CN2CCN(CC(=O)O)CCN(CC(=O)O)CCN(CC(=O)O)CC2)cc1 [lutetium-177 labelled],measured: 177Lu radioactivity,"female CB-17 SCID mice, Daudi xenograft, lung","intravenous, 0.16 nmol per mouse, 96 h",0.17 ± 0.01 %ID/g
CCCC[C@@H]1NC(=O)[C@@H](NC(=O)[C@H](CCC(=O)O)NC(=O)CNC(=O)CN2CCN(CC(=O)O)CCN(CC(=O)O)CCN(CC(=O)O)CC2)CCCCNC(=O)C[C@@H](C(N)=O)NC(=O)[C@H](C(C)C)NC(=O)[C@@H]2CCCN2C(=O)[C@H](CCCNC(=N)N)NC(=O)CNC(=O)[C@H](Cc2c[nH]c3ccccc23)NC(=O)[C@H](CCCNC(=N)N)NC(=O)[C@@H](Cc2ccccc2)NC(=O)[C@H](Cc2c[nH]cn2)NC(=O)[C@H](CCC(=O)O)NC1=O [gallium-67 labelled],,"C57 mice, B16/F10 lung metastatic melanoma, liver","intravenous, 0.037 MBq, 4 h",0.47 ± 0.1 %ID/g
O=C([O-])c1cccc(CN(CCN(Cc2cn(Cc3ccccc3)nn2)Cc2cccc(C(=O)[O-])n2)Cc2cn(Cc3ccccc3)nn2)n1.[64Cu+2],,"healthy athymic nude mice, stomach","intravenous, 24 h",2.13 %ID/g
N=C(N)NCCC[C@H](NC(=O)CON=C[C@H](F)[C@@H](O)[C@H](O)[C@H](O)CO)C(=O)NCC(=O)N[C@@H](CC(=O)O)C(=O)O [fluorine-18 labelled],,"nude mice U-87 MG tumour, lung","intravenous, 0.5 h",0.78 ± 0.05 %ID/g
O=C([O-])CN1CCN(CC(=O)[O-])CCN(CC(=O)[O-])CCN(CC(=O)[O-])CC1.[64Cu+2],,"healthy athymic nude mice, large intestine","intravenous, 24 h",0.35 %ID/g
CCCC[C@H](NC(=O)CN1CCC(NC(=O)CN2CCN(CC(=O)O)CCN(CC(=O)O)CCN(CC(=O)O)CC2)CC1)C(=O)N[C@H]1CC(=O)NCCCC[C@@H](C(N)=O)NC(=O)[C@H](Cc2c[nH]c3ccccc23)NC(=O)[C@H](CCCNC(=N)N)NC(=O)[C@@H](Cc2ccccc2)NC(=O)[C@H](Cc2c[nH]cn2)NC1=O [gallium-68 labelled],,"C57BL/6J mice male B16-F10 tumour, lungs","2 h post injection, unblocked",0.4 ± 0.1 %ID/g
CC(C)[C@H](NC(=O)[C@@H]1CCCN1C(=O)[C@H](CCCNC(=N)N)NC(=O)[C@H](CS)NC(=O)[C@H](Cc1c[nH]c2ccccc12)NC(=O)[C@H](CCCNC(=N)N)NC(=O)[C@@H](Cc1ccccc1)NC(=O)[C@H](Cc1c[nH]cn1)NC(=O)[C@H](CCC(=O)O)NC(=O)[C@H](CS)NC(=O)[C@H](CS)NC(=O)CNC(=O)[C@@H]1CC(=O)N[C@@H](CCCNC(=N)N)C(=O)NCC(=O)N[C@@H](CC(=O)O)C(=O)N[C@H](Cc2ccc(O)cc2)C(=O)N1)C(N)=O [technetium-99m labelled],,"C57 mice B16/F1 melanoma female, pancreas","iv, 2 h, together with: NDP-MSH 10 µg co-injected",0.42 ± 0.21 %ID/g

# Excerpt of the above:
SMILES,test,system,conditions,tissue uptake
NC12CNCCNCC(NCc3ccc(CNC(=O)CCCC(=O)NCc4ccc(-c5nncnn5)cc4)cc3)(CNCCNC1)CNCCNC2.[64Cu+2],,"athymic nude mice, SW1222 xenograft, muscle","24 h post-injection, 24 h pretargeting interval, together with: huA33-TCO pretargeting",0.2 ± 0.07 %ID/g
